Published values of several laboratories.
Each line is one published result; not all experiments were run side by side. Numbers after ± are the reported error.

CC(C)C[C@H](NC(=O)[C@H](CCc1ccccc1)NC(=O)CN1CCOCC1)C(=O)N[C@@H](Cc1ccccc1)C(=O)N[C@@H](CC(C)C)C(=O)[C@@]1(C)CO1  Tmax (median) (human patients, plasma; intravenous infusion 10 min, 27 mg/m^2, day 16 of cycle 1, KRd regimen): 0.15 h
Platinum  Tmax (ICP-MS, item: total platinum; human, plasma; cisplatin, cycle 2 day 1, median, together with: regorafenib 21 days): 2 h
O=C(c1cccnc1-c1ccncc1)N1CCC(O)(Cc2ccccc2)CC1  tmax (healthy human, plasma; oral, 100 mg once daily, day 1): 0.42 h
CNC(=O)c1cccc2cc(Oc3ccnc4cc(OCC5(N)CC5)c(OC)cc34)ccc12  Tmax median (human patients intermittent arm, plasma; oral, 10 mg, single dose cycle 1 day 1): 2.02 h
COc1ccc2nc([S@@+]([O-])Cc3ncc(C)c(OC)c3C)[nH]c2c1  Tmax (HPLC; human CYP2C19 rapid metabolizers, plasma; oral, 40 mg/day, day 5, pantoprazole): 1.13 ± 0.85 h
CC(C)(C)OC[C@@H]1C(=O)NCCN1C(=O)C[C@H](N)Cc1cc(F)c(F)cc1F  Tmax at steady state (human; 20 mg once daily, day 10, median): 4 h
Cc1ccc(NC(=O)c2ccc(CN3CCN(C)CC3)cc2)cc1Nc1nccc(-c2cncc(-c3oncc3C)c2)n1  Tmax (older healthy human adults, plasma; oral, 325 mg single dose, fed, mean): 5.65 h
CNC(=O)c1ccc(-c2cnc3ncc(Cc4ccc5ncccc5c4)n3n2)cc1F  Tmax (median) (human, normal and hepatically impaired, plasma; oral, 200 mg single dose): 1 to 1.5 h
CNCc1ccc(-c2[nH]c3cc(F)cc4c3c2CCNC4=O)cc1  Tmax (human patients, plasma; oral, 240 mg twice daily, day 15, steady state, median): 1.5 h
CC[C@H](C)[C@H](NC(=O)[C@H](CC(C)C)NC(=O)[C@H](Cc1c[nH]c2ccccc12)NC(=O)[C@H](C)NC(=O)[C@@H](NC(=O)[C@H](Cc1ccccc1)NC(=O)[C@H](CC(=O)O)NC(=O)[C@H](CCCNC(=N)N)NC(=O)[C@H](C)NC(=O)[C@H](C)NC(=O)[C@H](CC(C)C)NC(=O)[C@H](C)NC(=O)[C@H](CC(=O)O)NC(=O)[C@H](CC(C)C)NC(=O)[C@@H](NC(=O)[C@@H](NC(=O)[C@H](C)NC(=O)[C@H](CC(C)C)NC(=O)[C@H](CCC(=O)O)NC(=O)[C@H](CO)NC(=O)[C@H](CO)NC(=O)[C@H](Cc1ccccc1)NC(=O)[C@@H](NC(=O)CNC(=O)[C@H](CCC(=O)O)NC(=O)CNC(=O)[C@@H](N)Cc1cnc[nH]1)[C@@H](C)O)[C@@H](C)O)[C@@H](C)CC)[C@@H](C)CC)C(=O)N[C@@H](C)C(=O)N[C@H](C(=O)N[C@@H](CCCCN)C(=O)N[C@H](C(=O)N[C@H](C(=O)N[C@@H](CC(=O)O)C(=O)N[C@@H](CCCCN)C(=O)N[C@@H](CCCCN)C(=O)N[C@@H](CCCCN)C(=O)N[C@@H](CCCCN)C(=O)N[C@@H](CCCCN)C(=O)N[C@@H](CCCCN)C(N)=O)[C@@H](C)O)[C@@H](C)CC)[C@@H](C)O  tmax (immunoaffinity LC-MS/MS; healthy human subjects, plasma; intravenous infusion, 1 mg single dose, infused over 15 min): 0.42 h
CNc1nc(Nc2ccc(-n3cnc(C)n3)c(OC)c2)nc2c1CC[C@H]2c1ccc(F)cc1  Tmax prolongation (healthy humans, both sexes, plasma; oral, 300 mg single dose, high-fat meal; relative to: fasted): 1.5 h
CNC(=O)c1ccc(-c2cnc3ncc(Cc4ccc5ncccc5c4)n3n2)cc1F  tmax (healthy human subjects, plasma; oral, 200 mg, median, together with: itraconazole 200 mg/day): 2 h
